Results from different studies.
Compare with care: the assays were run in different laboratories. “And” joins repeats or separate records; there may be more than shown. ± gives the spread as reported.
MT-CYB/UQCRFS1: MT-CYB/UQCRFS1 (Homo sapiens, UniProt P00156+P47985)
Sequence of UniProt P47985 (whole entry, looked up): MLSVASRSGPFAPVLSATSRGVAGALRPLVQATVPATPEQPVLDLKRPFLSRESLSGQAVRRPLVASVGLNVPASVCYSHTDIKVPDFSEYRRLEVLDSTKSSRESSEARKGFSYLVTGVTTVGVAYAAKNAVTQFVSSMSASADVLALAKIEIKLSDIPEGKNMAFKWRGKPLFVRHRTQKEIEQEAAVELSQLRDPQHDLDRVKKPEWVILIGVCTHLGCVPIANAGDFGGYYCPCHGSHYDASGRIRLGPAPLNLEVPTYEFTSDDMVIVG
Sequence of UniProt P00156 (whole entry, looked up): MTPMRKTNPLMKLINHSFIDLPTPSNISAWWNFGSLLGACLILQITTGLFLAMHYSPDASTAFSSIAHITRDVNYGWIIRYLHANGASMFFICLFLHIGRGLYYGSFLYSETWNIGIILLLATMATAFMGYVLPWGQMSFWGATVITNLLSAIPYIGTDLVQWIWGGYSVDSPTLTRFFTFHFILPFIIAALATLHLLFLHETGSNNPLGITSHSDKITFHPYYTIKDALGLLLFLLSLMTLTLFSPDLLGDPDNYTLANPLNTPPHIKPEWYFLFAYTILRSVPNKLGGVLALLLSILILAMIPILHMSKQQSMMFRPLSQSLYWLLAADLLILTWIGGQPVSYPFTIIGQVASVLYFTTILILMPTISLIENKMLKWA
Dehaloperoxidase B ferric: Dehaloperoxidase B, ferric (Amphitrite ornata, UniProt Q9NAV7)
T1: ssDNA, aptamer; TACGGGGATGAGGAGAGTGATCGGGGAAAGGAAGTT
Sequence of UniProt P51575 (whole entry, unmodified, looked up): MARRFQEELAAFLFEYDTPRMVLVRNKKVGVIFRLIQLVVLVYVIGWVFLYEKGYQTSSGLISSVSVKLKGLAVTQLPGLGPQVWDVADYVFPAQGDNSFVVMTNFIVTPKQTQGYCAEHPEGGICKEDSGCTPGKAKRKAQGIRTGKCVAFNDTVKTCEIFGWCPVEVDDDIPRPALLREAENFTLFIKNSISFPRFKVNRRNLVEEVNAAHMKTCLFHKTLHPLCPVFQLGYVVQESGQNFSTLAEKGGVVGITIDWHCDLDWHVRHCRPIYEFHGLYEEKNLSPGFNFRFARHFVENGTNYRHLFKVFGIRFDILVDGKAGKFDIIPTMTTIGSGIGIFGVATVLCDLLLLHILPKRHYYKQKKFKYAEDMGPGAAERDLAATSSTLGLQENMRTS
Sequence of UniProt Q9BY41 (whole entry, unmodified, looked up): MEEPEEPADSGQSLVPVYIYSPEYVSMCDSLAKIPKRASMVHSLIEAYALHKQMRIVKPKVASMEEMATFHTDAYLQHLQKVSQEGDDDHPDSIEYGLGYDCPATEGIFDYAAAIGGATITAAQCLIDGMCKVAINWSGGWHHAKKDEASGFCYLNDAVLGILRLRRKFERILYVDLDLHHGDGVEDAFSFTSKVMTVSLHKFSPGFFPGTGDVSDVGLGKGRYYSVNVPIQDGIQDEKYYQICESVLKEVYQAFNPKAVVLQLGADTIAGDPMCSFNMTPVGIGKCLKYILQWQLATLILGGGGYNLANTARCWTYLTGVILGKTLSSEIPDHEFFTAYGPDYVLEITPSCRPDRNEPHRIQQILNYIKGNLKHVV
Sequence of UniProt P07339 (whole entry, looked up): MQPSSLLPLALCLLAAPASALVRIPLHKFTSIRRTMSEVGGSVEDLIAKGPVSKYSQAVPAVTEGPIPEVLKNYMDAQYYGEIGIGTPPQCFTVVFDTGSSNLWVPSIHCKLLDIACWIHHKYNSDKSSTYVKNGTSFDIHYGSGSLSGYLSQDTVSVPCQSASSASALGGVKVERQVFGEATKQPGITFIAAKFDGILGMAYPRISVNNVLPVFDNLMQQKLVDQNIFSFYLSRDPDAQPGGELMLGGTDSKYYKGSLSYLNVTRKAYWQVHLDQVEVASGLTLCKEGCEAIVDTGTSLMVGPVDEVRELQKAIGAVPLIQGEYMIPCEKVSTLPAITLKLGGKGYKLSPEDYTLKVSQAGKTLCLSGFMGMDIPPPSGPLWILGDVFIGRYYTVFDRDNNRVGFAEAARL
Sequence of UniProt Q8N6U8 (whole entry, looked up): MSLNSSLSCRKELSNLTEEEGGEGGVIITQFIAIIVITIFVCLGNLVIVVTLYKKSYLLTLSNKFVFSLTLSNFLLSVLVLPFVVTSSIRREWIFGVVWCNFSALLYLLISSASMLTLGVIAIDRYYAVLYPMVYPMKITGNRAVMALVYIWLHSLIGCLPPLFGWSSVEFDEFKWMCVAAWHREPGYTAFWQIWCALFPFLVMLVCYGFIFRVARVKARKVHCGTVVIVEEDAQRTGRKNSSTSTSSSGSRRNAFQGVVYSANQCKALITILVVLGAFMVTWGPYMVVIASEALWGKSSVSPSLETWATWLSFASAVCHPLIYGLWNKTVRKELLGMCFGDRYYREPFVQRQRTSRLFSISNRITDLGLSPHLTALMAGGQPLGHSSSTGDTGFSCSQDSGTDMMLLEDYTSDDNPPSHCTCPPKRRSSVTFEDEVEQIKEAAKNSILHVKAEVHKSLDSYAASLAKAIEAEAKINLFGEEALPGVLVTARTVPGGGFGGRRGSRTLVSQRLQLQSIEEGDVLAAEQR
Sequence of UniProt Q9BW60 (whole entry, unmodified, looked up): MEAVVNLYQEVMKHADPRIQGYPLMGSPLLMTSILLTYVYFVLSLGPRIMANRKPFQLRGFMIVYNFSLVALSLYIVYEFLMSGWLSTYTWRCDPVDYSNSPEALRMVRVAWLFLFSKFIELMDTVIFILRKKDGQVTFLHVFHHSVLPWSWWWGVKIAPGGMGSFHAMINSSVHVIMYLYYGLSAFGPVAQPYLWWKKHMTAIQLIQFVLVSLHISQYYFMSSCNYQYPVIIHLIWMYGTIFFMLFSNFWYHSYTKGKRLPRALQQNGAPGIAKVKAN
Sequence of UniProt Q9UKK3 (whole entry, looked up): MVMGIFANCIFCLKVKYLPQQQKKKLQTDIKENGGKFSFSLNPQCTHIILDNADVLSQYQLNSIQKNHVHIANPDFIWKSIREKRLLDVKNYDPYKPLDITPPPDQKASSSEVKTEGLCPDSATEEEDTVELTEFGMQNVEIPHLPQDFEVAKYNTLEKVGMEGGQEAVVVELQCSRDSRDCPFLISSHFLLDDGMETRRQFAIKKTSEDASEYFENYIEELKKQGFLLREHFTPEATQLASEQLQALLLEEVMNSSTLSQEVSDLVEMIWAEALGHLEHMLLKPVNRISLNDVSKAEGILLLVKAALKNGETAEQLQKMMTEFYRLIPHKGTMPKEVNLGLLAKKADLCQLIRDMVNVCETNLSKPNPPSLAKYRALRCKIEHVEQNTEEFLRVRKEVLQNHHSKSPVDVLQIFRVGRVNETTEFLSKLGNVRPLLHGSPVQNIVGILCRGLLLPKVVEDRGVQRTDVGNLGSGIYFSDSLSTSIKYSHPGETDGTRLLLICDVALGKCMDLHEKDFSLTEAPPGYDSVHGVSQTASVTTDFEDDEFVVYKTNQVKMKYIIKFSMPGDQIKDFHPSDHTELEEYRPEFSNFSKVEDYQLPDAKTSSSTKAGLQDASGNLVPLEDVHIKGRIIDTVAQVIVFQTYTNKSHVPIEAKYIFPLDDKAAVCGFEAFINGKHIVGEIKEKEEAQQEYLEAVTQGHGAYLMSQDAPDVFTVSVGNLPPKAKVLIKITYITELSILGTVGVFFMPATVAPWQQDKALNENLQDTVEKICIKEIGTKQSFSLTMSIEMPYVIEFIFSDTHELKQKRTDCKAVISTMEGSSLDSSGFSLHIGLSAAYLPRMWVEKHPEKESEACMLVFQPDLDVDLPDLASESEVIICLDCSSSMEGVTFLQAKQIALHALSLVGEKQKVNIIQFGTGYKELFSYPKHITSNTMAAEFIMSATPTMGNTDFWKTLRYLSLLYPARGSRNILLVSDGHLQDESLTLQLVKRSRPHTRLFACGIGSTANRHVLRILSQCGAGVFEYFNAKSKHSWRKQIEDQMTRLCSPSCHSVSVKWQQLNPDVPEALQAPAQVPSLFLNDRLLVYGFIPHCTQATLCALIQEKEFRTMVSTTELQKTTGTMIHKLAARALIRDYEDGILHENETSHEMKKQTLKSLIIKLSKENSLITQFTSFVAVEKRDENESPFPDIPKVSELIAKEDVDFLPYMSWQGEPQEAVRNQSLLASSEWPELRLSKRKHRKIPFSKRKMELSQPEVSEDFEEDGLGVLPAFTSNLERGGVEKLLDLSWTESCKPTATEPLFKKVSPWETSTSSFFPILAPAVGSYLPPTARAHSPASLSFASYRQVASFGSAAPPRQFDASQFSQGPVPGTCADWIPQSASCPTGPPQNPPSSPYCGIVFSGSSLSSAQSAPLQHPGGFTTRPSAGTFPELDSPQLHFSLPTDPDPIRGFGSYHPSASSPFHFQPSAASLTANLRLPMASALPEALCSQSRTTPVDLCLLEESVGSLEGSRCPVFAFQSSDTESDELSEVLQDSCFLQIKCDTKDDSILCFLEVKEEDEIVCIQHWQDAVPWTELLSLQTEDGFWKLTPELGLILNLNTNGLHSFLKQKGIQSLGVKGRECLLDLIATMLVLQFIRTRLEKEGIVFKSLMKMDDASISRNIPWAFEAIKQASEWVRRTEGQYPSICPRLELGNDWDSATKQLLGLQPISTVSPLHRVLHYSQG
Sequence of UniProt Q8K3Y3 (whole entry, looked up): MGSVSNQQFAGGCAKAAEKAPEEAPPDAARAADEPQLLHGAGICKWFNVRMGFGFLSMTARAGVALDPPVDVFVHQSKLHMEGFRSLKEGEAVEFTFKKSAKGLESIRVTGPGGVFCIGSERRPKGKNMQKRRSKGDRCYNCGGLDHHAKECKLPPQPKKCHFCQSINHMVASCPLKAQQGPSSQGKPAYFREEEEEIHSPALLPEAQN
Sequence of UniProt P40261 (whole entry, looked up): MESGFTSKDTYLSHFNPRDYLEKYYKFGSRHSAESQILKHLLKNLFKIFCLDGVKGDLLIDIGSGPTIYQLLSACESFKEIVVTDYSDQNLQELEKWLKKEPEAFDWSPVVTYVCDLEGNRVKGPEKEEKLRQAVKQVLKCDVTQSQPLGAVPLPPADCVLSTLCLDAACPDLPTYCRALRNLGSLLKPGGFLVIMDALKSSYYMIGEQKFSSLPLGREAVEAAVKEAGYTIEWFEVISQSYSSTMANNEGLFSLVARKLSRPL

SMILES	tested on	test	test system	setting	scale	quantity	value
O=c1ccn([C@@H]2O[C@H](COP(=O)(O)OP(=O)(O)O)[C@@H](O)[C@H]2O)c(=O)[nH]1	ABO (Homo sapiens, UniProt P16442, G235S/G268A/L266M/R176G/W181E)	methyl-TROSY NMR titration lineshape analysis	–	apo mutant enzyme	–	koff	1700 ± 70 s⁻¹
CCNc1ccc(C(N)=O)cn1	NNMT (Homo sapiens, UniProt P40261)	–	–	concentration not given	–	activity class	inactive
N[C@H]1[C@H](O[C@H]2[C@H](O)[C@@H](N)[C@H](O[C@H]3[C@H](O)[C@@H](N)[C@H](O[C@H]4[C@H](O)[C@@H](N)[C@H](O[C@H]5[C@H](O)[C@@H](N)C(O)O[C@@H]5CO)O[C@@H]4CO)O[C@@H]3CO)O[C@@H]2CO)O[C@H](CO)[C@@H](O)[C@@H]1O (stereo partly drawn)	LysM receptor-like kinase (Brachypodium distachyon, UniProt A0A0Q3FRN3)	radioligand binding, competition binding	membrane fractions	2 µM, added: radiolabelled LCO-V(C18:1,NMe)	–	competition of LCO binding	7% and 5.27% and 0.0913%
C=CC(=O)N1CCN(c2nc(OC[C@@H]3CCCN3C)nc3c(F)c(-c4nc(N)cc(C)c4C(F)(F)F)c(Cl)cc23)[C@@H](C)C1	GTPase KRas, GDP-bound (KRAS, Homo sapiens, UniProt P01116, G12V)	SPR	–	–	–	dissociation rate constant koff	0.328 ± 0.22 s⁻¹
O=C(COP(=O)(O)O)[C@@H](O)[C@H](O)[C@H](O)COP(=O)(O)O	Gem-associated protein 5 (Homo sapiens, UniProt Q8TEQ6)	thermal proteome profiling, measured: GEMIN5	HepG2 cell lysate	concentration not given, 57 over 37 °C, mean	baseline: compound over control	thermal stability ratio	0.508
Oc1ccccc1-c1n[nH]cc1-c1ccnc2ccccc12	TGFBR1 (Homo sapiens, UniProt P36897)	enzyme activity, radiometric kinase	–	–	baseline: LY selectivity fungal over TGFBR1	selectivity improvement	> 40 fold
COc1c(O[C@@H]2O[C@H](CO)[C@@H](O)[C@H](O)[C@H]2O)c(C)cc2c1C(=O)c1c(O)cccc1C2=O	HK-2 co-cultured with HepaRG	MTT	–	66.67 µM, 24 h	baseline: untreated control	cell viability	66.3 ± 8.24%
FC(F)(F)CN1CC(n2cc(Oc3ccn4nc(Cl)cc4n3)cn2)C1	Very long chain fatty acid elongase 1 (Homo sapiens, UniProt Q9BW60)	CETSA	Jurkat	1 h	–	ΔTm	12.3 °C
CC[C@@H]1[C@H](F)C(=O)N[C@@H]1COc1nccc2cc(C(N)=O)c(OC)cc12	CLK2 (Homo sapiens, UniProt P49760)	ATP-site probe binding, ActivX profiling	THP-1 cell lysate	0.2 mM, Lys2 site	–	inhibition	38.8%
NC(=O)NO	MT-CYB/UQCRFS1	complex III-dependent respiration, Seahorse XF96	HCT-116	250 µM, 24 h	baseline: control	oxygen consumption rate	89.1 ± 9.82%
CC(C)CC(=O)N[C@H](C(=O)N[C@H](C(=O)N[C@@H](CC(C)C)[C@@H](O)CC(=O)N[C@@H](C)C(=O)N[C@@H](CC(C)C)[C@@H](O)CC(=O)NCCOCCC(=O)NCCCC[C@H](NC(=O)CN1CCN(CC(=O)O)CCN(CC(=O)O)CC1)C(=O)O)C(C)C)C(C)C	Cathepsin D (CTSD, Homo sapiens, UniProt P07339)	surface plasmon resonance	–	–	–	dissociation rate constant	0.000744 s⁻¹
NC(=O)c1ccc[n+]([C@@H]2O[C@H](COP(=O)([O-])OP(=O)(O)OC[C@H]3O[C@@H](n4cnc5c(NCCNC(=O)CCCCCNC(=O)CCCCCNC(=O)CCCC[C@@H]6SC[C@@H]7NC(=O)N[C@@H]76)ncnc54)[C@H](O)[C@@H]3O)[C@@H](O)[C@H]2O)c1	PARP4 (Homo sapiens, UniProt Q9UKK3)	substrate, DELFIA auto-modification	–	–	–	apparent Km	14 µM
NC(=O)NOCCCCCCCCCCCCCC[P+](c1ccccc1)(c1ccccc1)c1ccccc1.O=C([O-])C(F)(F)F	MT-CYB/UQCRFS1	complex III-dependent respiration, Seahorse XF96	HCT-116	4 µM, 24 h	baseline: control	oxygen consumption rate	29.8 ± 2.44%
CC(=C/C(=O)O)/C=C/C=C(\C)C1C=C2C(C)(C)CCCC2(C)O1 (stereo not drawn)	Rhodopsin (RHO, Homo sapiens, UniProt P08100, E181K)	ER retention, immunostaining co-localization, measured: opsin with calnexin	COS-7 transfected E181K	10.00 µM	–	Pearson correlation coefficient	0.53
O=C(COP(=O)(O)O)[C@@H](O)[C@H](O)[C@H](O)COP(=O)(O)O	Pyruvate kinase PKM (PKM, Homo sapiens, UniProt P14618)	enzyme activity, activator	–	–	–	concentration for maximal activation	732 ± 170 nM
Nc1ncnc2c1ncn2[C@@H]1O[C@H](COP(=O)(O)CP(=O)(O)OP(=O)(O)O)[C@@H](O)[C@H]1O	P2X purinoceptor 1 (P2RX1, Homo sapiens, UniProt P51575, D170A)	saturation binding	–	130 nM	–	specific binding	452 corrected cpm and 371 corrected cpm and 574 corrected cpm
CC[C@H](C)[C@H](NC(=O)[C@@H]1CCCN1C(=O)[C@H](CC(C)C)NC(=O)[C@H](Cc1ccccc1)NC(=O)[C@H](CCC(=O)O)NC(=O)CNC(=O)[C@@H](NC(=O)[C@H](CCC(=O)O)NC(=O)[C@@H]1CCCN1C(=O)[C@H](CC(=O)O)NC(=O)[C@H](CC(C)C)NC(=O)[C@H](CCC(N)=O)NC(=O)[C@H](CC(C)C)NC(=O)[C@H](CCC(N)=O)NC(=O)[C@H](C)NC(=O)[C@H](Cc1ccccc1)NC(C)=O)[C@@H](C)O)C(=O)N[C@@H](CCC(N)=O)C(=O)N1CCC[C@H]1C(=O)N[C@@H](C)C(=O)N[C@@H](CCC(N)=O)C(N)=O	Kelch-like ECH-associated protein 1, Kelch domain (KEAP1, Homo sapiens, UniProt Q14145)	binding, ITC	–	pH 7, 298.15 K	–	ΔG	-11.28 ± 0.04 kcal/mol
O=c1nc(SCc2cc(F)cc(C(F)(F)F)c2)nc(SCc2csc3ccc(Cl)cc23)[nH]1	TOP2A (Homo sapiens, UniProt P11388)	DNA relaxation	–	31.25 µM, replicate 2	–	relaxed DNA	6.8%

SMILES	tested on	test	test system	setting	scale	quantity	value
CC1(C)C(N(O)C(=O)Nc2ccc(Cl)cc2)N(c2ccc(Cl)cc2)C(=O)N1CC(=O)N/N=C/C=C/c1ccc([N+](=O)[O-])o1 (stereo not drawn)	Protein transport protein Sec61 subunit alpha isoform 1 (Homo sapiens, UniProt P61619)	Sec61-dependent translocation, inhibitor, measured: CD4 signal peptide-FLuc reporter	HEK293	concentration not given, 6 h	–	FLuc/RLuc ratio	0.0982
Nc1ncnc2c1ncn2[C@@H]1O[C@H](COP(=O)(O)OP(=O)(O)OP(=O)(O)O)[C@@H](O)[C@H]1O	T1, ssDNA, aptamer	molecular beacon fluorescence quenching	–	–	–	Kd	1760 nM
CN1CCN(c2cc(-c3ccncc3)c(-c3ccc4ccccc4c3)nn2)CC1	TSHR (Homo sapiens, UniProt P16473)	agonist, FLIPR	–	12.5 µM	–	activation	-0.3%
O=C1Nc2ccc(Br)cc2C1O (stereo not drawn)	Dehaloperoxidase B ferric	product, HPLC	–	added: 5-bromoindole 500 µM, H2O2 250 µM	–	share of total products	5.4%
CCN1CCC[C@H]1CNC(=O)c1c(O)c(Cl)cc(Cl)c1OC	G-protein coupled receptor 161 (GPR161, Homo sapiens, UniProt Q8N6U8)	β-arrestin recruitment, TANGO luminescence, measured: GPR161	–	concentration not given	baseline: basal luminescence	log2 fold change	-0.058
CCCN(O)N=Nc1ccc(S(=O)(=O)Nc2nccs2)cc1	α-glucosidase, rat intestine	enzyme activity	–	20 µg/mL, added: 4-nitrophenyl α-D-glucopyranoside	–	inhibition	15 ± 1.26%
COc1cc2c(c(OC)c1OC)C(=O)c1c(cc(C)c(O)c1OC)C2=O	HK-2 co-cultured with HepaRG	MTT	–	66.67 µM, 24 h	baseline: untreated control	viability	65 ± 4.49%
O=C(O)c1cc2cccc([N+](=O)[O-])c2[nH]1	Protein lin-28 homolog A (Mus musculus, UniProt Q8K3Y3)	–	–	–	–	Hill slope	-0.9
NC(=O)NOCCCCCCCCCC[P+](c1ccccc1)(c1ccccc1)c1ccccc1.O=C([O-])C(F)(F)F	MT-CYB/UQCRFS1	complex III-dependent respiration, Seahorse XF96	HCT-116	15 µM, 24 h	baseline: control	oxygen consumption rate	64.3 ± 8.25%
CC(=O)N/C(=C\c1ccc(Cc2nc3c([nH]2)C(=O)c2ccccc2C3=O)cc1)c1nc2c([nH]1)C(=O)c1ccccc1C2=O	Kelch-like ECH-associated protein 1, with NRF2 (Mus musculus, UniProt Q9Z2X8)	binding	–	concentration not given, biochemical	–	activity class	inactive
Nc1ncnc2c1ncn2[C@@H]1O[C@H](COP(=O)(O)OP(=O)(O)O)[C@@H](O)[C@H]1O	GUK1 (Homo sapiens, UniProt Q16774)	ITC	–	molar ratio 1.319	–	ΔH	-0.838 kcal/mol
CN(O)N=Nc1ccc(S(=O)(=O)Nc2nccs2)cc1	α-glucosidase, rat intestine	enzyme activity	–	240 µg/mL, added: 4-nitrophenyl α-D-glucopyranoside	–	inhibition	52.5 ± 0.04%
CCCCC[C@H](O)/C=C/[C@H]1C(=O)C[C@H](O)[C@@H]1C/C=C\CCCC(=O)O	PTGDR (Homo sapiens, UniProt Q13258)	agonist	–	1.25 µM	–	activation	102%
O=CNc1ccc(Br)cc1C=O	Dehaloperoxidase B ferric	product, HPLC	–	5 min, pH 7, 25 °C, enzyme 10 µM, added: 5-bromoindole and H2O2 500 µM each	–	product formed	1.7 M
Cc1ccc(N(O)N=Nc2ccc(S(=O)(=O)Nc3onc(C)c3C)cc2)cc1	α-glucosidase, rat intestine	enzyme activity	–	120 µg/mL, added: 4-nitrophenyl α-D-glucopyranoside	–	inhibition	17.5 ± 0.013%
[H]/N=C(/N)NCC(=O)O	SLC6A6 (Homo sapiens, UniProt P31641, L306A)	binding, microscale thermophoresis	–	500 µM, room temperature, added: 50 nM labelled protein	higher = more binding	normalised MST signal	-0.0208
CC(NC(=O)CCCc1ccc2ccc3cccc4ccc1c2c34)C(=O)NO (stereo not drawn)	HDAC8 (Homo sapiens, UniProt Q9BY41)	ITC	Tris-HCl buffer	288 K	–	TΔS°	6.7 kcal/mol
COc1ccc(F)cc1C(=O)NCc1ccc(-c2nn([C@@H](C)C(F)(F)F)c(N)c2C(N)=O)cc1	BLK (Homo sapiens, UniProt P51451)	–	–	1000 nM, added: ATP at Km	–	remaining activity	72.8 ± 2.2%

A few entries again:
SMILES	tested on	test	test system	setting	scale	quantity	value
NC(=O)NOCCCCCCCCCC[P+](c1ccccc1)(c1ccccc1)c1ccccc1.O=C([O-])C(F)(F)F	MT-CYB/UQCRFS1	complex III-dependent respiration, Seahorse XF96	HCT-116	15 µM, 24 h	baseline: control	oxygen consumption rate	64.3 ± 8.25%
CC(=O)N/C(=C\c1ccc(Cc2nc3c([nH]2)C(=O)c2ccccc2C3=O)cc1)c1nc2c([nH]1)C(=O)c1ccccc1C2=O	Kelch-like ECH-associated protein 1, with NRF2 (Mus musculus, UniProt Q9Z2X8)	binding	–	concentration not given, biochemical	–	activity class	inactive
Nc1ncnc2c1ncn2[C@@H]1O[C@H](COP(=O)(O)OP(=O)(O)O)[C@@H](O)[C@H]1O	GUK1 (Homo sapiens, UniProt Q16774)	ITC	–	molar ratio 1.319	–	ΔH	-0.838 kcal/mol
